Published values collected from several papers.
Every numbered part comes from another study and shows a few of its results, in no order. Several values in a cell are separate wells, animals, samples, runs or records.
UniProt Q96PY6, sequence (whole entry, looked up): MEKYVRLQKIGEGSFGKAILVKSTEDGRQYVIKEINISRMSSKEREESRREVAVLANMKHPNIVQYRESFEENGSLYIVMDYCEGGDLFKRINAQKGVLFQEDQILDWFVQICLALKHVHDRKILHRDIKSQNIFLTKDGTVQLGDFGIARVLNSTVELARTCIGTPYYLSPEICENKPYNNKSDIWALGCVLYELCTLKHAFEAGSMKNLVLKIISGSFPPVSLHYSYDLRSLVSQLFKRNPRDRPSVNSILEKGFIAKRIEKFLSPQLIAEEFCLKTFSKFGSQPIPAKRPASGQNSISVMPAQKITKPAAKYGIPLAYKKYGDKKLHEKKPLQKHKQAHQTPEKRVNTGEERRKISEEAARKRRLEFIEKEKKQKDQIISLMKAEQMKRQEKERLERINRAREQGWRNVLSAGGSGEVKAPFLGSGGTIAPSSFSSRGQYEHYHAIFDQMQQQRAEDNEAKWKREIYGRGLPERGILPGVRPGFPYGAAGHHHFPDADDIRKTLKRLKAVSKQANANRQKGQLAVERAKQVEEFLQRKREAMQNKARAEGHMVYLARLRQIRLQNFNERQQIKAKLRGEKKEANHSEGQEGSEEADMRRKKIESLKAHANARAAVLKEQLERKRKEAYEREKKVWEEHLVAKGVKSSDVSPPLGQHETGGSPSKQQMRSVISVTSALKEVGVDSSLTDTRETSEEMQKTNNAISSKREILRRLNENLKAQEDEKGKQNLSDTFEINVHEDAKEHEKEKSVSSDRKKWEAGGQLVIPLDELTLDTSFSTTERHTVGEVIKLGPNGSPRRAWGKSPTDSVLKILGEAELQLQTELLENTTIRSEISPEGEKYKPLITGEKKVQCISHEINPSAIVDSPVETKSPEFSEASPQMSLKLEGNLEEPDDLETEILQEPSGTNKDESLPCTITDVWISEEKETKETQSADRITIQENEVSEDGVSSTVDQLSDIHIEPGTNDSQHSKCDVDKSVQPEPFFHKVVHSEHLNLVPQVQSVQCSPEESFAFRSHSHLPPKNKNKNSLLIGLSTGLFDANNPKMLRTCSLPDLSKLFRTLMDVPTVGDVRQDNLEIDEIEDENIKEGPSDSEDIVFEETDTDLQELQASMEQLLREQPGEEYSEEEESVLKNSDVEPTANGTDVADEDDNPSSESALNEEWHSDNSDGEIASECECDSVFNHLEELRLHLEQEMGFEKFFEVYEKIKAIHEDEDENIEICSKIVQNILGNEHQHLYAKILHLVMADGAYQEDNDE
UniProt O95382, sequence (whole entry, looked up): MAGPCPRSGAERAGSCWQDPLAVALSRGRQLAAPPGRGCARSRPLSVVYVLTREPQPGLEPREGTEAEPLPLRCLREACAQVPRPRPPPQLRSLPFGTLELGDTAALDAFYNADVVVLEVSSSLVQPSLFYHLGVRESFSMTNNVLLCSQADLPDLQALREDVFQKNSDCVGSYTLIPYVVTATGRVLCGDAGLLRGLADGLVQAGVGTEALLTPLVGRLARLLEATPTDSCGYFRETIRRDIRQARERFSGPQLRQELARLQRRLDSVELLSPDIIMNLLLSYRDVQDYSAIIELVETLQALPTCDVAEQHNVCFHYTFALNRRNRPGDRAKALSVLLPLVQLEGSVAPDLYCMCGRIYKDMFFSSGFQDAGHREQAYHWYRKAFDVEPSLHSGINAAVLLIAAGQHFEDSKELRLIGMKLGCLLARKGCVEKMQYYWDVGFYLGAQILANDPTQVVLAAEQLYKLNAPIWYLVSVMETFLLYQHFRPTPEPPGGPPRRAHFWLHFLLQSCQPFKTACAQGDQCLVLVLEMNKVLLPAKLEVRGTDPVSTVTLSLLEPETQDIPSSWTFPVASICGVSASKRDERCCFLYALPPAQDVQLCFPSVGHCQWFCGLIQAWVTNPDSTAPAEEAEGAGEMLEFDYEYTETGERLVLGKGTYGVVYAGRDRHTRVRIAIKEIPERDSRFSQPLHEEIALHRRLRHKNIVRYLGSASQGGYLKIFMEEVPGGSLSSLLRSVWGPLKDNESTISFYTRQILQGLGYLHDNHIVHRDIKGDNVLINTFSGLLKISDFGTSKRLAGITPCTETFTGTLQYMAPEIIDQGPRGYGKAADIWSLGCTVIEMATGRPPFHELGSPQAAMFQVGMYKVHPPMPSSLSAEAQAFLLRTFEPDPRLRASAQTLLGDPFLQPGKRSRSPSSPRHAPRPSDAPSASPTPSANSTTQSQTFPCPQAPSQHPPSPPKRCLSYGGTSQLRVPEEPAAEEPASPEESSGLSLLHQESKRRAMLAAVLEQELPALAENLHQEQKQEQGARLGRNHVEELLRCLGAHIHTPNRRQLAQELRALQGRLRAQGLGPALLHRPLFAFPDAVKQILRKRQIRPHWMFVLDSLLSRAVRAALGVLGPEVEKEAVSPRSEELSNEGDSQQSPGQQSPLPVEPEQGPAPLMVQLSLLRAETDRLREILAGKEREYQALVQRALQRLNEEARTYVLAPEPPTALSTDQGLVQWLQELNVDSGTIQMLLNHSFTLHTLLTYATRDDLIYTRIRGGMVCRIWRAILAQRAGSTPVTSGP
UniProt P36507, sequence (whole entry, looked up): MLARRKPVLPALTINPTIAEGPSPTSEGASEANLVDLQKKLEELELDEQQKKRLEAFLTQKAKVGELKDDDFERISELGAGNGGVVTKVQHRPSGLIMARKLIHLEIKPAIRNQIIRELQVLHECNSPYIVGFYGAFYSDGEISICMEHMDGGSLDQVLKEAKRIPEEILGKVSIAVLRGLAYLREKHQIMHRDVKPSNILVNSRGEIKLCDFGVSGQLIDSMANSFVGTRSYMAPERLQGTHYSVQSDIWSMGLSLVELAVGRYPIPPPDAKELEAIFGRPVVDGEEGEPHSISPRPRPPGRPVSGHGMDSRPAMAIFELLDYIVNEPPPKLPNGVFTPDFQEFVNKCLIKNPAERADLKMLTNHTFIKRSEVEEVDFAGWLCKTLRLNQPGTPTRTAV
UniProt P42336, sequence (whole entry, unmodified, looked up): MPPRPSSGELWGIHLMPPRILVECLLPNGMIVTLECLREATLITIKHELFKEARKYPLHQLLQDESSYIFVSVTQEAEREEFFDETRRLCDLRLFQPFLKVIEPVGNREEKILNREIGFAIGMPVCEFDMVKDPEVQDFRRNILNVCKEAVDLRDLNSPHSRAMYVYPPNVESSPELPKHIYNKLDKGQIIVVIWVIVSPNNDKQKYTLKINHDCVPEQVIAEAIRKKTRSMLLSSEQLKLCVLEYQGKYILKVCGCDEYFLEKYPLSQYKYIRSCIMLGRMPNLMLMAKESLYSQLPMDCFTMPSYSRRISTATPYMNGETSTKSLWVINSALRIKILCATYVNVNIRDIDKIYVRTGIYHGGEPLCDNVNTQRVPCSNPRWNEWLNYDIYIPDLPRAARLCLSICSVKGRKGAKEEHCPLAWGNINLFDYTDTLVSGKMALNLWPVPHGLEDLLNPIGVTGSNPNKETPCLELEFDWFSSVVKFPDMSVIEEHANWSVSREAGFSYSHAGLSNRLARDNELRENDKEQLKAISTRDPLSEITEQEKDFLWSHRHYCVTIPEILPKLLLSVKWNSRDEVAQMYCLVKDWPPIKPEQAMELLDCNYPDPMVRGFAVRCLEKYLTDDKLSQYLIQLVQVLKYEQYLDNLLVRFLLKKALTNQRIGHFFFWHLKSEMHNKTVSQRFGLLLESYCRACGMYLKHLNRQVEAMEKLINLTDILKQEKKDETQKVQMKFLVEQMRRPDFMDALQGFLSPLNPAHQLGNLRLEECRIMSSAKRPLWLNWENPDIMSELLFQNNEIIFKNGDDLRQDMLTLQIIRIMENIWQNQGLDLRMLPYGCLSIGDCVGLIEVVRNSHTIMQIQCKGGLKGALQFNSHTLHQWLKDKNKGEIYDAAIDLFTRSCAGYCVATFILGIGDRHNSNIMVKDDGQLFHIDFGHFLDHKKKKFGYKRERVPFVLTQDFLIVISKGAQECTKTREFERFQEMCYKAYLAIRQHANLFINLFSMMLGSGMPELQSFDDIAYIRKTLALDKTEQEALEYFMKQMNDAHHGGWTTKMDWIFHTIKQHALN
UniProt P78368, sequence (whole entry, looked up): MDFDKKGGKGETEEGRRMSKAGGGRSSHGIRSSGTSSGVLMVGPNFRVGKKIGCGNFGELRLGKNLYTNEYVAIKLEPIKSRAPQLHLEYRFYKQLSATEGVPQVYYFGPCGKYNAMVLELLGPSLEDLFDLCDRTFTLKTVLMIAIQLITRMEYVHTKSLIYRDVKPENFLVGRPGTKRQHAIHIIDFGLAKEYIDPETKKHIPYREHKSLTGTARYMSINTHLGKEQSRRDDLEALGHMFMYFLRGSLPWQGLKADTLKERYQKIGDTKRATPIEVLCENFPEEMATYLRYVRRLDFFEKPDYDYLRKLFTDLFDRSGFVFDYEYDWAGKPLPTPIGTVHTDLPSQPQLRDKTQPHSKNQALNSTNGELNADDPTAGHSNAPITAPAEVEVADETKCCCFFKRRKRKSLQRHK
UniProt P10398, sequence (whole entry, looked up): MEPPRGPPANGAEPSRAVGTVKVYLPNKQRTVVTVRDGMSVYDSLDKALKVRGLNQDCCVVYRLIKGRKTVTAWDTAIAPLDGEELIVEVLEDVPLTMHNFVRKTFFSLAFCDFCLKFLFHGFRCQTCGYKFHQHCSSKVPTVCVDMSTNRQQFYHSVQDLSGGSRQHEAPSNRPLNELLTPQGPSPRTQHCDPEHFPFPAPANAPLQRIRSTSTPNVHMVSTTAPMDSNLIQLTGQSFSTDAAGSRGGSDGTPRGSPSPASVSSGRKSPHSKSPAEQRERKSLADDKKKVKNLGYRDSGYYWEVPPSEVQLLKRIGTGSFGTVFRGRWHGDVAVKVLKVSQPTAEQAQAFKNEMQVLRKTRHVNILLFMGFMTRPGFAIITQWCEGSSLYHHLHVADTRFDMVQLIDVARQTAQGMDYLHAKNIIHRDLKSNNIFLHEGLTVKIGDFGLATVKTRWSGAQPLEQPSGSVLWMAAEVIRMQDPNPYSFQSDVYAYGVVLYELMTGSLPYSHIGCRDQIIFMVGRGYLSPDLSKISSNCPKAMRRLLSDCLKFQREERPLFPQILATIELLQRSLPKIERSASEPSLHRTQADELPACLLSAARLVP

Study 1
Cell line: mouse MPNST tumor cells
Technique: high-content immunofluorescence imaging
Refers to: nuclear SOX9
Concentration: 10 µM
Time: 12 h
Notes: mean of 2 replicates
Baseline: DMSO control
Direction: higher = more nuclear SOX9
| SMILES | nuclear SOX9 intensity |
| --- | --- |
| CC(=O)/N=c1/sc(S(N)(=O)=O)nn1C | 87.1 % of DMSO |
| COc1ccc(CCc2nc3cc(-c4c(C)noc4C)ccc3n2C[C@H](C)N2CCOCC2)cc1Cl | 119 % of DMSO and 131 % of DMSO |
| CCOC(=O)O[C@]1(C(=O)OCCl)CC[C@H]2[C@@H]3CCC4=CC(=O)C=C[C@]4(C)[C@H]3[C@@H](O)C[C@@]21C | 99.7 % of DMSO |
| Brc1c(Br)c(Br)c2n[nH]nc2c1Br | 105 % of DMSO |
| CC1=C(C)C(=O)C(C(C)(C)CC(=O)N(CCCCSC[C@H]2O[C@@H](n3cnc4c(N)ncnc43)[C@H](O)[C@@H]2O)Cc2cccc(-c3ccc(Cl)cc3)c2)=C(C)C1=O | 185 % of DMSO |
| Cc1cc2c(cc1S(N)(=O)=O)S(=O)(=O)CCC2 | 109 % of DMSO |
| c1ccc(-c2[nH]ncc2-c2ccnc3ccccc23)nc1 | 114 % of DMSO |

Study 2
Structure (SMILES): COc1ccc2c(O[C@@H]3C[C@H]4C(=O)N[C@]5(C(=O)O)CC5/C=C\CCCCC[C@H](NC(=O)OC5CCCC5)C(=O)N4C3)cc(-c3csc(NC(=O)C(C)C)n3)nc2c1C (stereo partly shown)
Read-out: cell-free assay
Technique: competition with immobilised ligand
Concentration: 1 µM
| target | remaining binding [%] |
| --- | --- |
| CDC42BPB (Homo sapiens, UniProt Q9Y5S2) | 96 |
| MAP3K1 (Homo sapiens, UniProt Q13233) | 82 |
| MAP3K6 (Homo sapiens, UniProt O95382) | 98 |
| Ribosomal protein S6 kinase alpha-4, N-terminal kinase domain (RPS6KA4, Homo sapiens, UniProt O75676) | 96 |
| PLK1 (Homo sapiens, UniProt P53350) | 77 |
| BMPR2 (Homo sapiens, UniProt Q13873) | 84 |
| MET (Homo sapiens, UniProt P08581, M1250T) | 100 |
| PIK3CA (Homo sapiens, UniProt P42336, E542K) | 71 |

Study 3
SMILES: Cn1cnc2cc3c(Nc4cccc(Br)c4)ncnc3cc21
Read-out: enzyme activity
Mode: inhibitor
Concentration: 0.5 µM
Baseline: control
| target | remaining activity [%] |
| --- | --- |
| TBK1 (Homo sapiens, UniProt Q9UHD2) | 87.7 |
| NEK6 (Homo sapiens, UniProt Q9HC98) | 98.1 |
| MAP2K2 (Homo sapiens, UniProt P36507) | 101 |
| FGFR3 (Homo sapiens, UniProt P22607) | 98.6 |
| ULK2 (Homo sapiens, UniProt Q8IYT8) | 74.8 |
| MERTK (Homo sapiens, UniProt Q12866) | 77.5 |
| LCK (Homo sapiens, UniProt P06239) | 47.7 |
| FRK (Homo sapiens, UniProt P42685) | 93.6 |
| RPS6KA2 (Homo sapiens, UniProt Q15349) | 79.4 |
| CSNK1G2 (Homo sapiens, UniProt P78368) | 89.2 |
| ARAF (Homo sapiens, UniProt P10398) | 119 |
| MAP3K14 (Homo sapiens, UniProt Q99558) | 90.6 |
| JAK3 (Homo sapiens, UniProt P52333) | 106 |
| NEK1 (Homo sapiens, UniProt Q96PY6) | 97.9 |

Study 4
Matrix: 1,9-decadiene/PBS
pH: 7.4
| SMILES | logD |
| --- | --- |
| CC(C)C[C@@H]1NC(=O)[C@H](C)NC(=O)[C@H](Cc2cscn2)NC(=O)[C@H](CC(C)C)NC(=O)[C@H](C(C)C)NC(=O)[C@H](CC(C)C)NC(=O)[C@@H](CC(C)C)NC1=O | -0.71 |
| CC(C)C[C@@H]1NC(=O)[C@H](CC(C)C)NC(=O)[C@@H](C(C)C)NC(=O)[C@H](C(C)C)NC(=O)[C@H](C(C)C)NC(=O)[C@H](Cc2cscn2)NC(=O)[C@H](C)NC1=O | -1.45 |
| CC(C)C[C@@H]1NC(=O)[C@H](CC(C)C)NC(=O)[C@@H](CC(C)C)NC(=O)[C@H](C(C)C)NC(=O)[C@@H](CCC(=O)N2CCCC2)NC(=O)[C@H](Cc2cscn2)NC(=O)[C@H](C)NC1=O | -2.34 |
| CC(C)C[C@@H]1NC(=O)[C@H](CC(C)C)NC(=O)[C@H](CC(C)C)NC(=O)[C@H](Cc2cscn2)NC(=O)[C@@H](Cc2cscn2)NC(=O)[C@@H](CC(C)C)NC(=O)[C@H](C)NC1=O | -0.514 |
| CC(C)C[C@@H]1NC(=O)[C@H](C(C)C)NC(=O)[C@H](Cc2cscn2)NC(=O)[C@H](CCC(=O)N2CCCC2)NC(=O)[C@@H](CCC(=O)N2CCCC2)NC(=O)[C@H](CC(C)C)NC(=O)[C@@H](CC(C)C)NC1=O | -2.21 |
